# Assay results gathered from unrelated publications.
# Values joined by “and” are separate records of one study, mostly repeats; a detail may differ. ± gives the spread as reported.
# B1: Escherichia coli lac repressor; chain MKPVTLYDVAEYAGVSYQTVSRVVNQASHVSAKTREKVEAAMAELNYIPNRVAQQLAGKQSLLIGVATSSLALHAPSQIVAAIKSRADQLGASVVVSMVERSGVEACKAAVHNLLAQRVSGLIINYPLDDQDAIAVEAACTNVPALFLDVSDQTPINSIIFSHEDGTRLGVEHLVALGHQQIALLAGPLSSVSARLRLAGWHKYLTRNQIQPIAEREGDWSAMSGFQQTMQMLNEGIVPTAMLVANDQMALGAMRAITESGLRVGADISVVGYDDTEDSSCYIPPLTTIKQDFRLLGQTSVDRLLQLSQGQAVKGNQLLPVSLVKRKTTLAPNTQTASPRALADSLMQLARQVSRLESGQ
Substance,tested on,assay,system,conditions,scale,endpoint,value
KANPDVTLV,Mamu-B*08301 MHC class I,peptide binding,"peptide, Chinese rhesus macaque",,,IC50,> 20 µM
heparin sodium,,,healthy Chinese adult volunteers,"continuous intravenous infusion, 8 IU/kg/h, 5 days",,injection site erythema swelling,0%
QTNPYPTGP,Mamu-B*08301 MHC class I,peptide binding,"peptide, Chinese rhesus macaque",,,IC50,> 20 µM
orexin-B,non-responsive control sensor,"sensor fluorescence, fluorescence imaging",HEK293T,"10 µM, with: OXB 10 µM",reference: baseline,maximal ΔF/F0,10.4% and 5.29% and 6.08% and 1.48% and -10.3% and -3.57%
insulin human,,item: GRIA1 mRNA,"uninfected mouse, brain","i.p., dose not given",reference: PBS,fold change,0.967
RSATETLAG,Mamu-A1*02601 MHC class I,peptide binding,"peptide, Chinese rhesus macaque",,,IC50,> 20 µM
"RNA 1 AACAAAACAAAAUAGCACCGUAAAGC / RNA 2 GCUUUACGGUGCUA (dsRNA; 14 bp duplex, 5' 12 nt overhang)","DEAD-box ATP-dependent RNA helicase RhpA 1-392 (Pseudomonas aeruginosa, UniProt Q9HX66)",fluorescence polarization,double-stranded RNA,,,Kd,0.218 µM
RAFVTI,mouse H2-Dd S73C/human β2m,"thermal stability rescue, DSF",peptide,"20-fold molar excess, pH 7.2, peptide-deficient, with: TCEP 1 mM",,Tm,35.3 ± 0.1 °C
aspterric acid,,hypocotyl length,Arabidopsis thaliana Col-0 seeds,"25 µg/mL, seed germination",reference: water control,inhibition,98%
HVLVMSATRR,,,"peptide, C57BL/6J mice, male, blood","subcutaneous osmotic pump, 3 mg/kg/day peptide basis, 8 weeks",,haematocrit,40.7% and 42.2% and 39.8% and 42.7%
nonaarginine,PorA peptide pore,"peptide binding, planar bilayer single-channel recording",,"0.5 µM, pH 7.4, +5 mV, trans side, 150 mM KCl",,kon,970000 ± 100000 M⁻¹ s⁻¹
DPDPE,,RP-HPLC,HALO C18 column,"25 µM, acetic acid/methanol, 25 min gradient",,retention time,15.3 min
AAATQEMTLVDTPNAK,MsrA and MsrB,LC-MS/MS,"peptide, actinonin-treated Escherichia coli proteome","20 min, pH 7.5, 37 °C, with: MsrA 0.54 µM, MsrB 2.02 µM",,fractional oxidation,0.151
GRAFVTI,mouse H2-Dd/human β2m,"thermal stability rescue, DSF",peptide,"20-fold molar excess, pH 7.2, peptide-deficient, UV-irradiated",,Tm,35.8 ± 0.3 °C
CEMDGQCKRDLKCCMGMCGKSCVSPVKA,NF-κB (mouse),Western blot,"peptide, RAW264.7","concentration not given, 6 h pretreatment, with: LPS for 30 min",,p-NF-κB/NF-κB ratio,0.16 ± 0.04
EFTEDELPSDSCVFGGQKLTL,"IKK, human",,peptide,"500 µM, 5 min, 30 °C, with: IκBα 1 µM",reference: no peptide,IκBα phosphorylation,5.69% and 0%
hexaarginine,PorA peptide pore,"peptide binding, planar bilayer single-channel recording",,"0.5 µM, pH 7.4, +20 mV, trans side, 150 mM KCl",,kon,1.71e+07 ± 2e+06 M⁻¹ s⁻¹
AAAALERLLQQLAAALAAGEL,"UltraID biotin ligase, C-terminal fusion","biotinylation activity, inhibitor, streptavidin/HA fluorescence ratio","peptide, HEK-293T","concentration not given, 30 min, with: biotin 50 µM",reference: control,inhibition,> 75%
RGPGRAFV,mouse H2-Dd/human β2m,"thermal stability rescue, DSF",peptide,"20-fold molar excess, pH 7.2, peptide-deficient, UV-irradiated",,Tm,35.1 ± 0.4 °C
B1 (Escherichia coli lac repressor),lac repressor Escherichia coli,,,"concentration not given, no operator DNA, with: [14C]IPTG",,remaining binding,100%
IQLGLQKCV,Mamu-B*08301 MHC class I,peptide binding,"peptide, Chinese rhesus macaque",,,IC50,> 20 µM
glucagon,,isotope dilution,"human, type 1 diabetes","intravenous infusion, 0.05 ng/kg/min, 100 to 120 min",,leg extraction,27.3 ± 4.1%
Polymyxin B,,,mouse,"intraperitoneal, 20 mg/kg single dose, day 1",,survival,100%
KINLTAPGG,Mamu-A1*02601 MHC class I,peptide binding,"peptide, Chinese rhesus macaque",,,IC50,> 20 µM
KLLETRLQTGEKPRLLALVEG,"UltraID biotin ligase, C-terminal fusion","biotinylation activity, inhibitor, streptavidin/HA fluorescence ratio","peptide, HEK-293T","concentration not given, 30 min, with: biotin 50 µM",reference: control,inhibition,> 75%
TPPLVRLVF,Mamu-A1*02601 MHC class I,peptide binding,"peptide, Chinese rhesus macaque",,,IC50,> 20 µM
colistin,Aspergillus fumigatus,,solid minimal medium,"10 µM, 4 d",reference: untreated control,radial growth ratio,1.01 and 0.99 and 0.98

# Some of these lines once more:
Substance,tested on,assay,system,conditions,scale,endpoint,value
IQLGLQKCV,Mamu-B*08301 MHC class I,peptide binding,"peptide, Chinese rhesus macaque",,,IC50,> 20 µM
orexin-B,non-responsive control sensor,"sensor fluorescence, fluorescence imaging",HEK293T,"10 µM, with: OXB 10 µM",reference: baseline,maximal ΔF/F0,10.4% and 5.29% and 6.08% and 1.48% and -10.3% and -3.57%
aspterric acid,,hypocotyl length,Arabidopsis thaliana Col-0 seeds,"25 µg/mL, seed germination",reference: water control,inhibition,98%
